Published values of several laboratories.
In brackets after ≈: the same amount, converted by molar mass.

Protein sequences, listed by entry. Tags and fused reporters are not part of them.
UniProt Q13470, whole entry: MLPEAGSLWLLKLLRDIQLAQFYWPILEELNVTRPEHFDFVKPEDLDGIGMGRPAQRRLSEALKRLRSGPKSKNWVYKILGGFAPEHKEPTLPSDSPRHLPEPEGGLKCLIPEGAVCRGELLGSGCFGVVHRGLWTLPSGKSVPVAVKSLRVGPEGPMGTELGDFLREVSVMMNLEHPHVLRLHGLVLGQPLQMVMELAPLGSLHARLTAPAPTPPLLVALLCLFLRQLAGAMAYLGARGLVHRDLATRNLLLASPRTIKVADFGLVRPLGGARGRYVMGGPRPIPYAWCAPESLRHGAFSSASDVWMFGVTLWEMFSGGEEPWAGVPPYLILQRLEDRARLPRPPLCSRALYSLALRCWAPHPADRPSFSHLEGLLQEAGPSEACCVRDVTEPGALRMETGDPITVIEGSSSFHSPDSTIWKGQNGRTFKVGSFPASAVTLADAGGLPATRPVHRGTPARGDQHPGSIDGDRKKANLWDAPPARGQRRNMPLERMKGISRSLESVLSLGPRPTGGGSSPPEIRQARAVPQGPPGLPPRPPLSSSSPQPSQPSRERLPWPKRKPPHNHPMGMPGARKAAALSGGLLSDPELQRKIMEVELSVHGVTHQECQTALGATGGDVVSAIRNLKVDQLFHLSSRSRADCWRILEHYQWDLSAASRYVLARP
UniProt P20309, whole entry: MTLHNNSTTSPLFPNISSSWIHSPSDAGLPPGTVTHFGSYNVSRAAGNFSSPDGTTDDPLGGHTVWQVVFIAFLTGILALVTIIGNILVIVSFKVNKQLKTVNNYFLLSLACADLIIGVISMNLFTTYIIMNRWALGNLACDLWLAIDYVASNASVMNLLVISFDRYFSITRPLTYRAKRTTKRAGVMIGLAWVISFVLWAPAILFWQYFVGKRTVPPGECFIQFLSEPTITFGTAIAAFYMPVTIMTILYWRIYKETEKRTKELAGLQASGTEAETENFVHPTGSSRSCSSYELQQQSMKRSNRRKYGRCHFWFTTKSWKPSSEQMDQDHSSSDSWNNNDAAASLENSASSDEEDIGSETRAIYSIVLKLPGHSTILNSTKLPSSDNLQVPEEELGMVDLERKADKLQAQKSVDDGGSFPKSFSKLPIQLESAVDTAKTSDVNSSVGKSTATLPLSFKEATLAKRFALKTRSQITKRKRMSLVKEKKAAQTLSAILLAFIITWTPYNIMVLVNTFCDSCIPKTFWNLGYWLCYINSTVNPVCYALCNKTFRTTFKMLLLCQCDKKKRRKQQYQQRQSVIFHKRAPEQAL

Structure (SMILES)	target or system	assay	system	conditions	how to read	quantity	result
CCOc1ccc2cc(-c3nn(C(C)(C)CCO)c(N)c3C(N)=O)ccc2c1	Toxoplasma gondii	growth				EC50	147 nM
CC(C)Oc1ccc2nc3ccc(=O)cc-3oc2c1	Mycobacterium tuberculosis		mc2 6206 bedaquiline-resistant MmpL5 regulator mutant	7 days		MIC90	88 µM (≈ 22.5 µg/mL)
O=C(Cn1c(-c2ccccn2)nc2ccccc21)Nc1ccc2ccccc2c1	Helicobacter pylori	cell growth, colony count	G27	200 µM, 24 h, culture exiting stationary phase		viable cells remaining	23 % CFU
CCc1nc(N)nc(N)c1C#CCc1cc(OC)cc(-c2ccc(C(=O)O)cc2)c1	Staphylococcus aureus		MRSA isolate HH 1184			MIC	5 µg/mL (≈ 12.4 µM)
COC(=O)c1ccc(Cl)cc1NC(=O)CSc1ncc(S(=O)(=O)c2ccc(Br)cc2)c(=O)[nH]1	Zika virus	viral replication	PF-251013-18			IC50	1 to 10 µM
CCOC(=O)OCOc1c(-c2ccc(Oc3ccc(OC(F)(F)F)cc3)cc2)c(C)nc2cc(OC)c(Cl)cc12	Plasmodium yoelii		mouse	oral		single-dose cure dose	3 mg/kg
CCN1CCN(Cc2ccc(NC(=O)c3ccc(C)c(/C=C/c4cnc5[nH]ccc5c4OC)c3)cc2C(F)(F)F)CC1	HIP1-PDGFRB fusion	kinase-CDC37 interaction, cell-based kinome screen		5 µM	reference: vehicle	log2 fold change	0.266
CSc1nc(Cl)cc(Sc2nnc(-c3cc(C(F)(F)F)cc(C(F)(F)F)c3)[nH]2)n1	Escherichia coli		MC4100	no additive		MIC	> 590 µg/mL
CC#C/C(=N\OC[C@H]1COCCN1)c1ccc2ncnc(Nc3ccc(OCc4cccc(F)c4)c(Cl)c3)c2c1	Non-receptor tyrosine-protein kinase TNK1 (TNK1, Homo sapiens, UniProt Q13470)	kinase activity		10 µM		inhibition	5.7%
CCCCCCC1c2ccc(O)cc2Oc2cc(O)ccc21	Klebsiella pneumoniae		BARB 105	together with: NAB7061 4 µg/mL		MIC	> 74.6 µg/mL
CCCc1nn2c(=O)cc(CSc3nc(-c4ccc(C)cc4)nc4cc(=O)[nH]n34)nc2s1	Zika virus	viral replication	PF-251013-18			IC50	> 10 µM
CCCN1CCN(c2ccc3c(c2)C2CC3CCN2C(=O)OCc2ccccc2)CC1 (stereo not drawn)	Muscarinic acetylcholine receptor M3 (CHRM3, Homo sapiens, UniProt P20309)	binding, radioligand binding				Ki	1110 nM

Excerpt of the above:
Structure (SMILES)	target or system	assay	system	conditions	how to read	quantity	result
CSc1nc(Cl)cc(Sc2nnc(-c3cc(C(F)(F)F)cc(C(F)(F)F)c3)[nH]2)n1	Escherichia coli		MC4100	no additive		MIC	> 590 µg/mL
